# Measurements from different studies.
# A part holds a random share of what one study measured. Changes are numbered by the printed parent chain.

# Block 1 — technique: RNA Bind-n-Seq; form: RNA; medium: in vitro; concentration: 365 nM; baseline: no-protein control; direction: higher = stronger binding
# Target: RNA binding protein fox-1 homolog 2, RRM domain, GST-SBP tag (RBFOX2, Homo sapiens, UniProt O43251-10, residues 100-194)
# Setting: natural RNA segment, single round, ends assumed
# Constant ends, left off below: GGGAGUUCUACAGUCCGACGAUC … UGGAAUUCUCGGGUGCCAA
# Residues (chain): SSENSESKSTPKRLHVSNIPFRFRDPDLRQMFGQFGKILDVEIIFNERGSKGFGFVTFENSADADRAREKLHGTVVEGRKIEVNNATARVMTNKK
Sequence,RBNS enrichment (R)
UCUAUAUGGACACAACAGUAAGAAGAAUGGGGCCUCGUCCCUGUCGACUUGAAUAUUAUCCCUAUGUAUUGCAUGAGAGGGGUCUCCCUCAUUCCAUCAGAGUAAUACAC,0.913
ACAAAAUCUCCAUUUCCUUGUGCCUGGCACUGUCUCGAGCCUAAGCUAUUUUAAAGAUGUUUUAAACAGUGGAAGAAUUAAGUCCACCAAAAGUCUUCCAUGAAAUGUAG,0.532
GUUUACAGUGUCUGUUGGUGGCCAAGACCUUCUCUCUCCACCCCUCCUCCAUCCACCCUGAGGACCCUGGGGCUCAGUGGAGGCAGGGCCCUGCCCCCCUCCCUUCCGCU,0.344
UAUUUCUCUGCAUCUUCUCUUGGAGUGAGGGAGGCUACCUGGAGGGGAUCAGCCCACUGACAGACCUUAAUCUUAAUUACUGCUGUGGCUAGAGAGUUUGAGGAUUGCUU,0.659
AACCGAGACUCUUCUCUGUUUCCUGCCAAGACCUCAUCUGCACUAAUGCCUUCUCCCUGACCUUGACACUUCCCCCUUUAGCUAUAAAAGCACUUACCAGCCGAACGUGG,0.895
CCUGGGUCAUUUUAACAAGGGUGAGGUAUUUAGCAUCAAAUAAAAAGAUUGUAGUCAGCAUUUCAUUUGAGAGAAUACAAGAAAUGAAUAAAUCUAUUAGGGCCAGGGCC,2.23
ACUCCGUCUCAAAAAGAAAAAGUUUGGAUCAGGCAGGGUGGCUCACACCUGUAAUCCCUGCACUUUGGGAGGCCAAGGUGGGAGGAUCAGUUGAGCCCCAGAGUUCAAGA,0.396
AAUUUGAAAGCUUUCAUGCUGUUAGCCCCUGAUGAAAUUCUCAGCAUUAACUGGCCAGCUCCUCUGAUUUCUGCAGCAUCGCAACAGGUUCGAAGAUGGGUUGUGGCUGG,1.53
GGCCUUGAGGGAAUAAGGGGCCCCUGGCUCUGGGGACCCACCCGGUGGGACUUAGUGGUGAGACACUGGUUGAUCUCUUAGAAGCCCUGGGACACGCCCUCCCUCAUUCA,0.418
UUUACACUUAUGCUCUAAGUGAUCCUUUUAAAAAUUUUCUGAACUAUUUGAGGAAAGUAUUAUUUGUCUUAAAGGGUAACAGCCUCAUGAAAUGACUUGAGGAUUCCAAU,0.736
AAAACUGAGAACUAACAUUAAAAAAAUUAAAUUUAGAAUAAGAAUGAUUUCUUUAAUUUGUCCUUUUUUUCUUUGGUCUAAAACAUUAUUAAAUUUUUGUAAAUAUUUUG,1.95
AACACUAAUUGCUGGGCCUCAACCCAAAAGCCCCCAAAGUGGCACUUCUGAGUUCCUGCUGAUGUUACAAGGGACCACACUUUUGAGAAUCUGUGCUUUAAGCUAAGGAA,0.281

# Block 2 — target: JUND, bZIP domain (human); technique: DHFR protein complementation; medium: yeast; baseline: wild-type JUN-FOS pair; direction: higher = stronger binding
# Setting: single substitutions, most at no-binding floor
# Parent: JUN, bZIP domain (human); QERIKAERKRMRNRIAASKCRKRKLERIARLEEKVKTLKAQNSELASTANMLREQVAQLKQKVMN; partner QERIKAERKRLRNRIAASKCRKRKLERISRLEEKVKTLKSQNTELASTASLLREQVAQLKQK
Change,binding fitness
S47G,-0.797 natural log
M51R,-0.678 natural log
K34T,-0.429 natural log
V35A,-1.13 natural log
E54L,-1.03 natural log
E44V,-0.775 natural log
Q55T,-0.931 natural log
K36A,-0.537 natural log
Q41I,-0.694 natural log
A49C,-0.103 natural log
A46H,-0.847 natural log
I28C,-1.18 natural log
E54Y,-1.05 natural log
T48N,-1.08 natural log
S47D,-0.512 natural log
N42W,-1.11 natural log
S47E,-0.326 natural log
K36C,-0.895 natural log
E32V,-1.03 natural log
A46Q,-0.545 natural log
T37M,-0.19 natural log

# Block 3 — target: CCNB1, cyclin fold, Cln2 fusion (human); technique: yeast growth competition, sequencing; medium: yeast; setting: weak parent motif; baseline: not given; direction: higher = stronger binding
# Parent: CDC25A docking peptide (human); PPHRRRLLFACSP
Change,normalised enrichment score
PPHRRRLLFTCSP [A10T],1.1
PPHRRRLLCACSP [F9C],0.389
PPHRRRILFACSP [L7I],1.18
PPHRRRLLFACHP [S12H],0.571
PPHRRRLLFAISP [C11I],0.529
PPHRRRTLFACSP [L7T],0.949
PRHRRRLLFACSP [P2R],0.48
PPHRRRKLFACSP [L7K],0.477
PPHYRRLLFACSP [R4Y],0.781
PPHRRRLLYACSP [F9Y],1.05
PPHRRELLFACSP [R6E],0.533
PPHRRRLLVACSP [F9V],0.515
PPHRRRLLFAHSP [C11H],0.523
HPHRRRLLFACSP [P1H],0.534
PPHRRRELFACSP [L7E],0.399
PPHRRRALFACSP [L7A],0.904
PPHLRRLLFACSP [R4L],1.37
PPQRRRLLFACSP [H3Q],-0.0841
WPHRRRLLFACSP [P1W],0.46

# Block 4 — technique: DHFR PCA, deep sequencing; medium: yeast; with: (+)-ABA 0.39 µM; baseline: wild-type fitted maximum; direction: higher = stronger binding
# Target: ABI1, truncated, D143A, DHFR fusion (Arabidopsis thaliana)
# Setting: methotrexate growth selection, single substitutions
# Parent: PYL1, truncated, DHFR fusion (Arabidopsis thaliana); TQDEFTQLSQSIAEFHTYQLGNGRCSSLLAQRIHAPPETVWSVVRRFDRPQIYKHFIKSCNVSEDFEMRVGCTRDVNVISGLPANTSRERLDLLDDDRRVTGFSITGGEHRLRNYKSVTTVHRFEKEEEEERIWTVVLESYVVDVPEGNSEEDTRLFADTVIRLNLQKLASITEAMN; partner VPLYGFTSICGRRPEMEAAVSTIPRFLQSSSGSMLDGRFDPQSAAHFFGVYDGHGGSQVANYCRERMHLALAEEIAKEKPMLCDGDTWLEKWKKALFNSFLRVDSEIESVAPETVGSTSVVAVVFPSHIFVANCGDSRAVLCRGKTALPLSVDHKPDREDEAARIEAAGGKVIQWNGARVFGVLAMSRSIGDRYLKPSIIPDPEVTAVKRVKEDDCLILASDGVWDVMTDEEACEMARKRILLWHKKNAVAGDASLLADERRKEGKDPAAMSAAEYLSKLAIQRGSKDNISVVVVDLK
Change,relative binding score
V100R,-0.946%
T39W,3.8%
G108M,-6.35%
S104G,-1.62%
L94A,-12.7%
E127S,49.4%
H34I,8.86%
M176Y,-8.74%
I133N,68.1%
G81Q,1.03%
Q10L,18.1%
K54Y,-20.9%
L8S,-5.53%
D48I,1.12%
H16P,11.8%
D48T,-13.5%
L28T,8.32%
T101M,75.2%
I133S,57%
L8F,46.2%

# Block 5 — technique: RNA Bind-n-Seq; form: RNA; medium: in vitro; concentration: 200 nM; setting: whole 134-nt RNA, ends assumed; with: 150 mM LiCl; baseline: input library; direction: higher = stronger binding; all molecules: 7-deaza-guanosine replaces G
# Target: Fragile X messenger ribonucleoprotein 1, C-terminal low-complexity region (Fmr1, Mus musculus, UniProt P35922)
# Constant ends, left off below: GGGAGUUCUACAGUCCGACGAUC … UGGAAUUCUCGGGUGUCAAGG
Sequence,log2 enrichment
UGGCCCCGGUGGCAUGCGGGGAGGAAGAGGUGGCCUCAUGGAUCGUGGUGGUCCCGGUGGAAUGUUCAGAGGUGGCCGUGGUGGAGACAG,-0.46
AAGUCCUGUGCUACACAUCGUAUGUACCGAAUCGGGUGGGUUUUUGGGAAAAAGGGAAAGUAUUAUGUUACGCCGUUCGGAUCUGCACUU,-0.638
UGUGCUACACAUCGUAUGUACCGAAUCGGGAAAAAAAGGGGAAAAAAAGGGGAAAAAAAGGGGAAAGUAUUAUGUUACGCCGUUCGGAUC,1.03
UGGGAGGUGGAAUUUGUUUAUUUUUUUAGCUCAUUUCCAGGGGUGGGAAUUUUUUUUUAAUAUGUGUCAUGAAUAAAGUUGUUUUUGAAA,1.21
UGGGAGGUGGAUUUUGUUUAUUUUUUUAGCUCAUUUCCAGGGGUGGGAAUUUUUUUUUAAUAUGUGUCAUGAAUGAAGUUGUUUUUGAAA,0.324
AAGUCCUGUGCUACACAUCGUAUGUACCGAAUCGGAAAAGGGGAAAAGGGAAAAGGAAAGUAUUAUGUUACGCCGUUCGGAUCUGCACUU,-0.509
UCCUCAAGUCCUGUGCUACACAUCGUAUGUACCGAAUCGGGAGGGAGGGAGGAAAGUAUUAUGUUACGCCGUUCGGAUCUGCACUUCCAG,-0.856
UCCUCAAGUCCUGUGCUACACAUCGUAUGUACCGAAUCGGUUGGUUGGUUGGAAAGUAUUAUGUUACGCCGUUCGGAUCUGCACUUCCAG,0.994
AAGUCCUGUGCUACACAUCGUAUGUACCGAAUCGGGAGGGUUUUUGGGAAAAAGGGAAAGUAUUAUGUUACGCCGUUCGGAUCUGCACUU,-0.492
CAAGUCCUGUGCUACACAUCGUAUGUACCGAAUCGGAAAAAAAGGAGGAAAAAGGAAAGUAUUAUGUUACGCCGUUCGGAUCUGCACUUC,-0.722
CCUGUGCUACACAUCGUAUGUACCGAAUCGGAAAAAAAGGAAAAAAAGGAAAAAAAGGGGAAAGUAUUAUGUUACGCCGUUCGGAUCUGC,-0.881

# A few entries again (block 3):
Change,normalised enrichment score
PPQRRRLLFACSP [H3Q],-0.0841
PPHRRRTLFACSP [L7T],0.949
PPHRRRLLYACSP [F9Y],1.05
WPHRRRLLFACSP [P1W],0.46
PPHLRRLLFACSP [R4L],1.37
PPHRRRLLFACHP [S12H],0.571
